Results gathered from unrelated publications.
A part holds a random share of what one study measured.

Study 1
Target: RING finger protein unkempt homolog, zinc fingers 1-6, GST-SBP tag (UNK, Homo sapiens, UniProt Q9C0B0, residues 30-357)
UniProt Q9C0B0, sequence (30-357, looked up): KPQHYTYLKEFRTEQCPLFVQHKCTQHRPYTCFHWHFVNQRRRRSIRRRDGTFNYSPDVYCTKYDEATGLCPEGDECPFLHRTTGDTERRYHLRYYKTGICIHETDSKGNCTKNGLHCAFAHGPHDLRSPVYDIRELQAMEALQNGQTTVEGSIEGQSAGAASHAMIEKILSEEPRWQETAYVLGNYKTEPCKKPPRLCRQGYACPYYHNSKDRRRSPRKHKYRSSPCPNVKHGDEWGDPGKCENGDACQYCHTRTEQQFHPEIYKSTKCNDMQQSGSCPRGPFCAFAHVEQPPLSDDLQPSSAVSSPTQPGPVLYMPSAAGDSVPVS
Technique: RNA Bind-n-Seq
Molecule type: RNA
Medium: in vitro
Concentration: not given
Notes: RNA with constant flanks, human-mouse chimeric sites, ends assumed
Baseline: input RNA pool
Direction: higher = stronger binding
All sequences stand within: GGGAGUUCUACAGUCCGACGAUC … CAACAGAGGAUUGAGCAUCA
Oligonucleotide | bound/input enrichment
UUCAAAGAAAAGGGCAGUUCAUAAAUAUCAUAAGUAACUCUGGGGGAUAAGUGGAAGGUUCUUUUGUUUAAUUUUCCCCCAAAUGAAGCCAAAGUGUGUGUUGAAGAACUGAGAAAAAAU | 0.22 ratio
GCUCCUCCCCGCUCUGCAGCCUGGGGACUUUUGGCAAGGACCAGAAUCCAGCUUUCUUUUAAAACUCUCAGUGUAACUUCUUUUUCUGACAUUUCAUUUUUUUUAAAUAGUGUAUUUUUU | 4.46 ratio
GUCAACAGUUGUCUCAACCCCAUCCUCUACGCCUUCCUGGAUGAGAACUUCAAGGCCUGCUUCCGCAAGUUCUGCUGUGCAUCUGCCCUGCGCCGGGACGUGCAGGUGUCUGACCGCGUG | 0.377 ratio
AAAGUGAUGACUAUGUUUGUCCAACGACAGGUAUUUUCUGAGAACAAAGAUGAGAUUGCGUUAGUCCUCUAUGGCACAGAUGGCACUGACAAUCCCCUUGCUGGCAAGGACCAGUAUCAG | 0.117 ratio
AAAGAGAAACUAAAGCAACUAAUAGAGAAGAGGAUUGGCAAAGAGAAUUUCAUAGAGAAACUAGGAUUUUAUUAGCAACAUGAGUUAUAUUCCAGAGCGUCUCAGAAAACCCCAGCCAAC | 8.42 ratio
CGAGACAAGACAUCCAGGAACAUGCGAGGCUCCCGGAUGAAUGGGUUGCCUAGCCCCACUCACAGCGCCCACUGUAGCUUCUACCGAACCAGAACCUUGCAGGCACUAAGUAAUGAGAAG | 0.124 ratio
ACUCUUGACUCUUUCCAUCCUCUUCCUUUCCCUCUUGAUAUUCAAGGCCAUGAAUCCCAAAAUAGCUAUCUAUCUUACUAGCACCCAAACAGAGGUGGAAUAAAUCCACCCCAGUGUCUC | 3.68 ratio
CUGGCACUGUAUCAGAUAUAUUAAUUUUUUAAUGUAGAUGUAAUUUUAAAAAUGAAUGGCUACUUUACACGUUUAACUAGGCUCUUACUAUAUAUGUGUACAUAUGUAUAUAUAUAUAUA | 2.99 ratio

Study 2
Target: Histone acetyltransferase KAT6A, winged helix 1, GST fusion (KAT6A, Homo sapiens, UniProt Q92794, residues 1-85)
Technique: protein binding microarray
Molecule type: double-stranded DNA, one strand shown
Medium: in vitro
Concentration: not given
Notes: 8-mer, flanks averaged, mean of 2 arrays, mostly near background
Baseline: not given
Direction: higher = stronger binding
Residues (chain): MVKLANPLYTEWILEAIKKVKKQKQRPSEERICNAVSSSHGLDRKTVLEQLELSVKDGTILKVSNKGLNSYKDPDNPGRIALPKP
Oligonucleotide | E-score
ATTTACGG | 0.225
GTCCGCCA | 0.139
ATGGTAAT | -0.124
CATACGAG | -0.116
TGTTATAA | 0.00611
ATTTCATC | -0.237
AATCGGAG | -0.128
ACAGAAGC | -0.0486
TCGTGACA | -0.165
CATAAGGG | -0.0314
AACGTACA | -0.164
CGTGTTAA | -0.0128
CGGTGGCC | 0.232
ACGTAAAC | 0.0921
GCCTCCAC | 0.0476
AAAGCTTA | -0.194
CACGCATA | 0.106
CTCGACTA | -0.14
TCACAACA | -0.0816
GCATTAGA | 0.000745
GTTGGTAA | 0.0183
CTTTTCTC | -0.147
CCCGTGCG | 0.382
TATACAAA | -0.0703

Study 3
Target: RNA binding protein fox-1 homolog 2, RRM domain, GST-SBP tag (RBFOX2, Homo sapiens, UniProt O43251-10, residues 100-194)
Technique: RNA Bind-n-Seq
Molecule type: RNA
Medium: in vitro
Concentration: 365 nM
Notes: natural RNA segment, single round, ends assumed
Baseline: no-protein control
Direction: higher = stronger binding
All sequences stand within: GGGAGUUCUACAGUCCGACGAUC … UGGAAUUCUCGGGUGCCAA
Residues (chain): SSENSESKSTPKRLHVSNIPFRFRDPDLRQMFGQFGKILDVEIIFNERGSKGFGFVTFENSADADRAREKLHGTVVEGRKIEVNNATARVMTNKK
Oligonucleotide | RBNS enrichment (R)
AUGCAGAGGACUUGCUCAGACUCCUACAGGCUCCUGAUCACUGCAAGCCCCCAGUACCGGUCAGUUGAUUCUGUGGGCUGUAAACUGUGAAGUAUGGGUUCUCUCAGAGG | 0.282
GAAACCAAGCCCACGGUCUUGGCCGUGACCCUGAUAAUAAAUGGGCUCUCUCAGAGGCGCCAGCCCCUCCCUCCCCAGCCGGAGGCGUCAUCUCUCUUCUGUACCACUAG | 0.326
AAAAGUUACUUUAUUUAAAAGCAUUUAUUAAUCUUAGUCUGAAAUCAAAAUAUAGAUUAAUUGGCUCAGCUUUAAUACCUUUCUAGGAGGUGUCACAAUGUAGGGUACCA | 0.595
UAUUUCUAUGCUUAAAAUUCUCUUUCCUAGUCAAAAAUUGCCCAAAUCUGUGUUUGCUUUCUGCUUGCUACAUUUGUCUCCCUUACUUUUCUUGAGCUAAAGACAGGCUU | 1.33
CCUCAAAUCACCAACAGCUUGUUACUACAACAAAUUGUUUUGAUUUUAGUGCCUGUUGAGGACUUGAUUUCUUCUUGAUUUUUCUCUUAAUCUGGUUCAUUUGAAAUUUC | 0.506
GGGUCUUCCUGCCUCACCACCUUGCUGUGCAUGAUGAUGCUGACCCACCCCCUUUACCUCCCUUCCCAGAACUGAUACACGGGUGUUAUUAUUCAGGAAAAAAACUGAGC | 1.31
GUGGAAUAGGGAACUGUAAUGGCCACUGAAGCACGUGAGAGACCCUCGCAAAAUGAUGUGAAAGGACCAGUUUCUUGAAGUCCAGUGUUUCCACGGCUGGAUACCUGUGU | 0.419
CUGCAGUUGGGAACGGUGAUCUUCUUGAAUGAUGUUUCAGUGUGCAAAAACUAUAGAGCCUGUCAGCACCAAAGCUGACAGAAGUUAUACCUUACUCCUUUCCUUUCCCC | 0.605

Study 4
Target: Ras GTPase-activating protein-binding protein 1, RRM domain (G3BP1, Homo sapiens, UniProt Q13283)
UniProt Q13283, sequence (whole entry, looked up): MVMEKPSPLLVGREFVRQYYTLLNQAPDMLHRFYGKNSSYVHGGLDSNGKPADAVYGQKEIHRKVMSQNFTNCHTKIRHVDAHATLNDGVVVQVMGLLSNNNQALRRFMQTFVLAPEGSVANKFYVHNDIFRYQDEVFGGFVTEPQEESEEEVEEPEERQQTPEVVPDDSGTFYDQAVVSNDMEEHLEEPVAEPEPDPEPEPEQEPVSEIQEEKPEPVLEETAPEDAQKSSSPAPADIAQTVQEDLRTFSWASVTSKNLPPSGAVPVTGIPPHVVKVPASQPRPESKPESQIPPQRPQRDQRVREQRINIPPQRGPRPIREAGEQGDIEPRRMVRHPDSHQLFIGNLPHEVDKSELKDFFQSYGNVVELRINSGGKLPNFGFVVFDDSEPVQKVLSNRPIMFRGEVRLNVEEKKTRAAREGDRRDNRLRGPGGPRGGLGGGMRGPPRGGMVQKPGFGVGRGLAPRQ
Technique: RNA Bind-n-Seq
Molecule type: RNA
Medium: in vitro
Concentration: 1 µM
Notes: whole 134-nt RNA, ends assumed
With: 150 mM KCl
Baseline: input library
Direction: higher = stronger binding
All sequences stand within: GGGAGUUCUACAGUCCGACGAUC … UGGAAUUCUCGGGUGUCAAGG
Oligonucleotide | log2 enrichment
AAGUCCUGUGCUACACAUCGUAUGUACCGAAUCGGGGAAAGGGGAAAGGGGAAAGGAAAGUAUUAUGUUACGCCGUUCGGAUCUGCACUU | -0.0713
CAAGUCCUGUGCUACACAUCGUAUGUACCGAAUCGGAAAAAAAGGAAAGGUUUGGAAAGUAUUAUGUUACGCCGUUCGGAUCUGCACUUC | -0.186
UGGCCCUGGUGGCAUGCGGGGAGGAAGAGGUGGCCUCAUGGAUCGUGGUGGUCCCGGUGGAAUGUUCAGAGGUGGCCUUGGUGGAGACAG | 1.5
UGGGAGGUGGAUUUUGUUUAUUUUUUUAGCUCAUUUCCAGGGGUGGGAAUUUUUUUGUAAUAUGUGUCAUGAAUAAAGUUGUUUUUGAAA | 2.19
ACCAUGCAGGUGGGCAUCUUUGGGAAGUGGGGCAACGGGGGGAUAGGGAGGGGGGUAACACUUUGGGAACAGGUGGUCCCAGGUCGUUUC | -0.344
AGUCCUGUGCUACACAUCGUAUGUACCGAAUCAAAUUUUUAAACCCAAAUUUUUAAAAAAGUAUUAUGUUACGCCGUUCGGAUCUGCACU | -0.325
CACAGACAACACGCACCCACACAGACACAGAGGGAAGGGGUUGGGAUGGGCACAGGGUGCACAGCAGGGCGGGGUAGGACCCCAGCCCCU | 0.0656
ACCAUGCAGGUGGGCAUCUUUGGGAAGUGGGGCAAGGGGGGGAUAGGGAGGGGGGAAACACUUUGGGAACAGGUGGUCCCAGGUCGUUUC | -0.48
CAUGUUGAAAGACAUGCUUUUAUUUUUUUGUAAAACAAUAUAGGAGCUGUGUCUACUAUUAAAAGUGAAACAUUUUGGCAUGUUUGUUAA | -0.569

A few entries again (study 3):
Oligonucleotide | RBNS enrichment (R)
AUGCAGAGGACUUGCUCAGACUCCUACAGGCUCCUGAUCACUGCAAGCCCCCAGUACCGGUCAGUUGAUUCUGUGGGCUGUAAACUGUGAAGUAUGGGUUCUCUCAGAGG | 0.282
GAAACCAAGCCCACGGUCUUGGCCGUGACCCUGAUAAUAAAUGGGCUCUCUCAGAGGCGCCAGCCCCUCCCUCCCCAGCCGGAGGCGUCAUCUCUCUUCUGUACCACUAG | 0.326
AAAAGUUACUUUAUUUAAAAGCAUUUAUUAAUCUUAGUCUGAAAUCAAAAUAUAGAUUAAUUGGCUCAGCUUUAAUACCUUUCUAGGAGGUGUCACAAUGUAGGGUACCA | 0.595
UAUUUCUAUGCUUAAAAUUCUCUUUCCUAGUCAAAAAUUGCCCAAAUCUGUGUUUGCUUUCUGCUUGCUACAUUUGUCUCCCUUACUUUUCUUGAGCUAAAGACAGGCUU | 1.33
CCUCAAAUCACCAACAGCUUGUUACUACAACAAAUUGUUUUGAUUUUAGUGCCUGUUGAGGACUUGAUUUCUUCUUGAUUUUUCUCUUAAUCUGGUUCAUUUGAAAUUUC | 0.506
